{"data": "Earlier results that unrelated publications cite", "note": "Each line is one published result; not all experiments were run side by side. Numbers after ± are the reported error."}
{"Structure (SMILES)": "O=C(O)C(F)(F)C(F)(F)C(F)(F)C(F)(F)C(F)(F)C(F)(F)C(F)(F)F", "test": "one-compartment model", "system": "human, blood and urine", "endpoint": "t1/2", "value": "1.3 years"}
{"Structure (SMILES)": "O=C(O)C(F)(F)C(F)(F)C(F)(F)C(F)(F)C(F)(F)C(F)(F)C(F)(F)C(F)(F)C(F)(F)C(F)(F)F", "system": "human, young female", "endpoint": "renal clearance", "value": "0.045 mL/day/kg"}
{"Structure (SMILES)": "C=C(C)[C@@H]1CCC(C)=C[C@H]1c1c(O)cc(CCCCC)cc1O", "system": "mouse", "conditions": "i.p., corneal kindling model", "endpoint": "protective index", "value": 2.4}
{"Structure (SMILES)": "Nc1ncnc2c1ncn2[C@@H]1O[C@H](COP(=O)(O)OP(=O)(O)OP(=O)(O)O)[C@@H](O)[C@H]1O", "test": "phosphate ionisation", "system": "aqueous solution", "endpoint": "pKa4", "value": 7.1}
{"Structure (SMILES)": "COc1cc2c(Oc3ccc4[nH]c(C)cc4c3F)ccnc2cc1OCC1(N)CC1", "system": "ICR mice", "conditions": "14 days", "endpoint": "LD50", "value": "1740 mg/kg"}
{"Structure (SMILES)": "Nc1nnc(-c2cccc(Cl)c2Cl)c(N)n1", "system": "male rat", "conditions": "i.p., MES seizure test", "endpoint": "protective index", "value": 8.5}
{"Structure (SMILES)": "COc1cnc(-n2cnc(C)n2)c2[nH]cc(C(=O)C(=O)N3CCN(C(=O)c4ccccc4)CC3)c12", "system": "human", "conditions": "dose not given, repeated dosing", "endpoint": "time to steady state", "value": "~3 days"}
{"Structure (SMILES)": "Cc1cccc(-c2[nH]c(CNc3ccccc3F)nc2-c2ccc3ncnn3c2)n1", "system": "Beagle dog", "conditions": "oral, 14 days", "endpoint": "MTD", "value": "< 100 mg/kg/day"}
{"Structure (SMILES)": "O=C(O)C(Br)Br", "system": "rat, urine", "conditions": "oral gavage, 40 mg/kg, 48 h, includes endogenous amounts", "endpoint": "cumulative urinary excretion", "value": "11.4 ± 5.5 µg"}
{"Structure (SMILES)": "O=C(O)C(F)(F)C(F)(F)C(F)(F)C(F)(F)C(F)(F)C(F)(F)C(F)(F)F", "system": "human", "conditions": "mean", "endpoint": "renal clearance", "value": "0.044 mL/day/kg"}
{"Structure (SMILES)": "CC(C)C[C@H](NC(=O)CNC(=O)c1cc(Cl)ccc1Cl)B(O)O", "test": "population PK estimate", "endpoint": "absorption lag time", "value": "0.22 h"}
{"Structure (SMILES)": "CCN(CC)N=O", "test": "fingerprint mutation, item: T>C substitution", "system": "mouse, liver", "conditions": "concentration not given", "endpoint": "mutation frequency", "value": "increased"}
{"Structure (SMILES)": "N#CCNC(=O)c1ccc(-c2ccnc(Nc3ccc(N4CCOCC4=O)cc3)n2)cc1", "system": "human", "conditions": "dose not given, mass balance", "endpoint": "share of plasma radioactivity AUC", "value": "64.2%"}
{"Structure (SMILES)": "CC(C)(C)NC(=O)[C@@H]1C[C@@H]2CCCC[C@@H]2CN1C[C@@H](O)[C@H](Cc1ccccc1)NC(=O)[C@H](CC(N)=O)NC(=O)c1ccc2ccccc2n1", "system": "human, plasma", "conditions": "dose not given, range of reported values", "endpoint": "AUC", "value": "1.53 to 4.03 µM·h"}
{"Structure (SMILES)": "O=C(O)C(F)(F)C(F)(F)C(F)(F)C(F)(F)C(F)(F)C(F)(F)C(F)(F)C(F)(F)C(F)(F)F", "system": "human, young female", "endpoint": "renal clearance", "value": "0.047 mL/day/kg"}
{"Structure (SMILES)": "CCCCCOc1ccc(-c2ccc(-c3ccc(C(=O)N[C@H]4C[C@@H](O)[C@@H](O)NC(=O)[C@@H]5[C@@H](O)[C@@H](C)CN5C(=O)[C@H]([C@@H](C)O)NC(=O)[C@H]([C@H](O)[C@@H](O)c5ccc(O)cc5)NC(=O)[C@@H]5C[C@@H](O)CN5C(=O)[C@H]([C@@H](C)O)NC4=O)cc3)cc2)cc1", "system": "haematological patients", "conditions": "200 mg q48h", "endpoint": "AUC(0-144)", "value": "348 mg·h/L"}
{"note": "Repeated from above:"}
{"Structure (SMILES)": "C=C(C)[C@@H]1CCC(C)=C[C@H]1c1c(O)cc(CCCCC)cc1O", "system": "mouse", "conditions": "i.p., corneal kindling model", "endpoint": "protective index", "value": 2.4}
